Results from different studies.
Each line is one published result; not all experiments were run side by side. Several values in a cell are separate wells, animals, samples, runs or records. ± gives the spread as reported.

`chondroitin sulfate C` gave a thermal shift of 2.15 °C (SAR11_0271 Candidatus Pelagibacter; binding, DSF; single replicate screen).
The inhibition of `KLLETRLQTGEKPRLLALVEG` is reported as greater than 75% (UltraID biotin ligase, C-terminal fusion; biotinylation activity, inhibitor, streptavidin/HA fluorescence ratio; peptide, HEK-293T; concentration not given, 30 min, with: biotin 50 µM; baseline: control).
`GEMVGQARILAQATSDLVNAIKDA` — result for “rupture force FWHM upper side”: 14.1 pN (vinculin head domain Vd1; complex rupture, AFM single-molecule force spectroscopy; peptide; single traces, C-terminal pulling, 800 nm/s).
`maraviroc` has a phospho-GSK-3α decrease of 3.42 fold (GSK-3α; mice, NSG hu-PBL, HIV-infected, brain FC region; ip, 120 mg/kg twice daily, 3 weeks post-infection, GSK-3α, total, normalized to; baseline: untreated HIV-infected mice).
`VVVGASGVGK` — result for “relative protein remaining”: 1 (HLA class I peptide complex; Western blot; peptide, 293T; 0 h, with: cycloheximide 100 µg/mL; baseline: baseline).
`MTVCNASQRQAHAQATAVSL` gave a selectivity ratio of 0.89 ± 0.29 (MiaPaCa; phage binding; peptide; baseline: targeting over control phage).
`Pam3CSK4`: “relative mRNA level” 2.18 and 1.69 and 2.34 (TLR2; agonist, RT-qPCR, measured: Marco; BV-2; 1.0 µM; baseline: untreated cells).
`GSGAGKETYY` — result for “normalised SPR binding response”: 0 normalised RU (human SCRIB PDZ3-4 tandem (MBP fusion); surface plasmon resonance; peptide; concentration not given; higher = stronger binding).
`GLAQWIAGV` has a reporter activation of 0.007% (Jurkat T cells expressing 1G4 TCR; NFAT-eGFP reporter, fluorescence microscopy; peptide; concentration not given, HLA-A*02:01 NY-ESO system).
`ILEAAKSIAAATSALVKAASAAQRE` — result for “rupture force FWHM lower side”: 20.5 pN (vinculin head domain Vd1; complex rupture, AFM single-molecule force spectroscopy; peptide; single traces, C-terminal pulling, 800 nm/s).
`GGWVEKETYY`: “normalised SPR binding response” 0 normalised RU (human SCRIB PDZ3-4 tandem (MBP fusion); surface plasmon resonance; peptide; concentration not given; higher = stronger binding).
For `Peginesatide`, “phosphorylation fold change” read 24.3 fold (ERK5 (MAPK7) human; LC-MS/MS phosphoproteomics, measured: ERK5 phosphotyrosine site 220; UT7/EPO; 10 nM, 15 min, with: EPO 10 U/mL; baseline: vehicle).
`FVTI` has a Tm of 36.3 ± 0.2 °C (mouse H2-Dd S73C/human β2m; thermal stability rescue, DSF; peptide; 20-fold molar excess, pH 7.2, peptide-deficient, with: TCEP 1 mM).
`Pam2CSK4`: “relative mRNA level” 2.25 and 1.42 and 2.11 (TLR2; agonist, RT-qPCR, measured: Msr1; BV-2; 1.0 µM; baseline: untreated cells).
The co-IP enrichment of `triosephosphate isomerase` is reported as 0 (co-immunoprecipitation; human RBC membrane; DMTMM crosslinker, unit not given, with: Band 3 peptide 1-56 bait; baseline: negative control).
`ALLQWVAQV` gave a reporter activation of 9.95% (Jurkat T cells expressing 1G4 TCR; NFAT-eGFP reporter, fluorescence microscopy; peptide; concentration not given, HLA-A*02:01 NY-ESO system).
`AAASMWR` has a fractional oxidation of 0.396 (MsrA and MsrB; LC-MS/MS; peptide, actinonin-treated Escherichia coli proteome; 20 min, pH 7.5, 37 °C, with: MsrA 0.54 µM, MsrB 2.02 µM).
`adenosylhomocysteinase` has a co-IP enrichment of 5000 (co-immunoprecipitation; human RBC cytosol; DSSO crosslinker, unit not given, with: Band 3 peptide 1-56 bait; baseline: negative control).
For `PMESGICTIV`, “normalised SPR binding response” read 23.1 normalised RU (human SCRIB PDZ3-4 tandem (MBP fusion); surface plasmon resonance; peptide; concentration not given; higher = stronger binding).
`EMIDENRRRVLVKVVLFP` has an inhibition of greater than 75% (UltraID biotin ligase, C-terminal fusion; biotinylation activity, inhibitor, streptavidin/HA fluorescence ratio; peptide, HEK-293T; concentration not given, 30 min, with: biotin 50 µM; baseline: control).
With `KNKEKALII` the t1/2 was 30 min (HLA-B8 (human); complex dissociation; peptide; 37 °C).
The binding intensity of `KPGKGSETVV` is reported as 0.561 (human MAGI1-2/6 PDZ construct (MBP fusion); automated holdup; peptide, crude extract; concentration not given, uncorrected, unit not given; baseline: biotin control resin, higher = stronger binding).
`heparin sodium` has an inhibition of 45.7% (NEDD8-cullin 1 interaction; AlphaScreen; 100 µM).
The binding intensity of `KDECVIATEV` is reported as 0.206 (human SCRIB PDZ3-4 tandem (MBP fusion); automated holdup; peptide, purified PDZ protein; concentration not given, unit not given; baseline: biotin control resin, higher = stronger binding).
For `VVVGAAGVGK`, “relative protein remaining” read 1 (HLA class I peptide complex; Western blot; peptide, 293T; 0 h, with: cycloheximide 100 µg/mL; baseline: baseline).
`GSGAGKESYV`: “normalised SPR binding response” 63.8 normalised RU (human SCRIB PDZ3-4 tandem (MBP fusion); surface plasmon resonance; peptide; concentration not given; higher = stronger binding).
`colistin` has an MIC of no more than 0.5 µg/mL (Escherichia coli; broth microdilution; clinical isolate RKI-No_95/15).
For `sevelamer carbonate`, the inhibition was -17.9% (NEDD8-cullin 1 interaction; AlphaScreen; 100 µM).
For `QSARYRDTEL`, the binding intensity was -0.0135 (human MAGI1-3/6 PDZ construct (MBP fusion); automated holdup; peptide, crude extract; concentration not given, corrected by standard peak, unit not given; baseline: biotin control resin, higher = stronger binding).
For `AAAEGEMK`, the fractional oxidation was 0.606 (MsrA and MsrB; LC-MS/MS; peptide, actinonin-treated Escherichia coli proteome; 10 min, pH 7.5, 37 °C, with: MsrA 0.54 µM, MsrB 2.02 µM).
`NPDALPETLV` gave a binding intensity of 0.68 (human MAGI1-3/6 PDZ construct (MBP fusion); automated holdup; peptide, crude extract; concentration not given, corrected by standard peak, unit not given; baseline: biotin control resin, higher = stronger binding).
`TTFFDYDYGA` gave an association constant of 11000 M⁻¹ (human CCL7; nano-ESI MS; peptide; pH 6.8, CCL7 10 µM).
